Results gathered from unrelated publications.
Every numbered part comes from another study and shows a few of its results, in no order. Changes are numbered by the printed parent chain.
UniProt P52333, sequence (whole entry, looked up): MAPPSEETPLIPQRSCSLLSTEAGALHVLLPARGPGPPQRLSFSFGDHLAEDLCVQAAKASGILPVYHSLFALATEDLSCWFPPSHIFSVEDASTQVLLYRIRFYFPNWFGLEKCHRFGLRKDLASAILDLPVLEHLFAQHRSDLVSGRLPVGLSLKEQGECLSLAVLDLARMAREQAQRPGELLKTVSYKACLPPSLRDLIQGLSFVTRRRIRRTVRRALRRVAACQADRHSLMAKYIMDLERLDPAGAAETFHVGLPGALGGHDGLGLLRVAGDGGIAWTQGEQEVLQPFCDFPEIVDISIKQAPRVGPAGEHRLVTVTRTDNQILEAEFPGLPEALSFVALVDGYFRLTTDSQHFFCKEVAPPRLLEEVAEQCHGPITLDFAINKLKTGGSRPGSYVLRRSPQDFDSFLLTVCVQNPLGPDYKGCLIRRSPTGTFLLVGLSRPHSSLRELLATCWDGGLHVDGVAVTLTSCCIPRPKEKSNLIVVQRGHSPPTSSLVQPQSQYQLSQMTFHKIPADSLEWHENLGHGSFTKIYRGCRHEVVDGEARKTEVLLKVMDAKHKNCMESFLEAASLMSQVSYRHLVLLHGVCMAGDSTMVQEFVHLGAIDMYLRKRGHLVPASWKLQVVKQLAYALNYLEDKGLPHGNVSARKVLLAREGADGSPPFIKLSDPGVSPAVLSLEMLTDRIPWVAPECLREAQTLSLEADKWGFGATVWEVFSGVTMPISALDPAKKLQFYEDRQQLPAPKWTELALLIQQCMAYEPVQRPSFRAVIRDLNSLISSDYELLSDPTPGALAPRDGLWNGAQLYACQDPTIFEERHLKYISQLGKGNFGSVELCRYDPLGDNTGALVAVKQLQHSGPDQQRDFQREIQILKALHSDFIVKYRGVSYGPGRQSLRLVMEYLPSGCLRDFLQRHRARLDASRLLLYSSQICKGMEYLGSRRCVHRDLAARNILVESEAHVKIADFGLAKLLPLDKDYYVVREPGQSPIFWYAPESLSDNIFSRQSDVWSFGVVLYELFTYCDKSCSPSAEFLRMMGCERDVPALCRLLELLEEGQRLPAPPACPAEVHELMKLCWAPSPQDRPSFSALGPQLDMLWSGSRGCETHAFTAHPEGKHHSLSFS
UniProt P42684, sequence (whole entry, looked up): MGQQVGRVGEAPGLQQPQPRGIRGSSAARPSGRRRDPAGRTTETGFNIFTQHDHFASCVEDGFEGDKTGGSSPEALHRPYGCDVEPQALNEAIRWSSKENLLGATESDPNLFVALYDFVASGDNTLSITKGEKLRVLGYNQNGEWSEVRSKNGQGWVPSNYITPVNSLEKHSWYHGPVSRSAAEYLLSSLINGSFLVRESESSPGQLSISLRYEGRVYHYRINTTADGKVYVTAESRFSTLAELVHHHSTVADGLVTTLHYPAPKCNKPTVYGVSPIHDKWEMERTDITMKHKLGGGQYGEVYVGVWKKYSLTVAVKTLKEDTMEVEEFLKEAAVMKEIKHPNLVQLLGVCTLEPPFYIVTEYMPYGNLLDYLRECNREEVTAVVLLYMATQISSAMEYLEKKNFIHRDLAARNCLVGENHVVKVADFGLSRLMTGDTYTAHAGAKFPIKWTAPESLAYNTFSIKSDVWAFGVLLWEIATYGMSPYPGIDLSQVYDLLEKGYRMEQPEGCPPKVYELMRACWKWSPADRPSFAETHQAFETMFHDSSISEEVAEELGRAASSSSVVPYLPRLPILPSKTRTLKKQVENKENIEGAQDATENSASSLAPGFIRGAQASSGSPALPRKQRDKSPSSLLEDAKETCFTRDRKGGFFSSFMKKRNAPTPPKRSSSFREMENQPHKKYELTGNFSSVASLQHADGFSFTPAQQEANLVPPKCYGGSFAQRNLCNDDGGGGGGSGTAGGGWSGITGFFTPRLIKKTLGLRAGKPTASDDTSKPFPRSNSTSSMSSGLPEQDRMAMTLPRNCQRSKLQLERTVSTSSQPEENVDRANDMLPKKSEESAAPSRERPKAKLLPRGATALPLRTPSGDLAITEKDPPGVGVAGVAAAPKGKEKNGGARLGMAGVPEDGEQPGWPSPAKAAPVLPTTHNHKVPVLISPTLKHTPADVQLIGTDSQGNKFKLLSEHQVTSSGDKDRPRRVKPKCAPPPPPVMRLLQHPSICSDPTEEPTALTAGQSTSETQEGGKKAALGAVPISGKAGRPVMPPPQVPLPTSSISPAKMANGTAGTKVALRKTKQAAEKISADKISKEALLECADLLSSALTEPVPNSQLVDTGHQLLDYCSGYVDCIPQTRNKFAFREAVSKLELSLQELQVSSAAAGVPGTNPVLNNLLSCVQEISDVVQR
UniProt Q02763, sequence (whole entry, looked up): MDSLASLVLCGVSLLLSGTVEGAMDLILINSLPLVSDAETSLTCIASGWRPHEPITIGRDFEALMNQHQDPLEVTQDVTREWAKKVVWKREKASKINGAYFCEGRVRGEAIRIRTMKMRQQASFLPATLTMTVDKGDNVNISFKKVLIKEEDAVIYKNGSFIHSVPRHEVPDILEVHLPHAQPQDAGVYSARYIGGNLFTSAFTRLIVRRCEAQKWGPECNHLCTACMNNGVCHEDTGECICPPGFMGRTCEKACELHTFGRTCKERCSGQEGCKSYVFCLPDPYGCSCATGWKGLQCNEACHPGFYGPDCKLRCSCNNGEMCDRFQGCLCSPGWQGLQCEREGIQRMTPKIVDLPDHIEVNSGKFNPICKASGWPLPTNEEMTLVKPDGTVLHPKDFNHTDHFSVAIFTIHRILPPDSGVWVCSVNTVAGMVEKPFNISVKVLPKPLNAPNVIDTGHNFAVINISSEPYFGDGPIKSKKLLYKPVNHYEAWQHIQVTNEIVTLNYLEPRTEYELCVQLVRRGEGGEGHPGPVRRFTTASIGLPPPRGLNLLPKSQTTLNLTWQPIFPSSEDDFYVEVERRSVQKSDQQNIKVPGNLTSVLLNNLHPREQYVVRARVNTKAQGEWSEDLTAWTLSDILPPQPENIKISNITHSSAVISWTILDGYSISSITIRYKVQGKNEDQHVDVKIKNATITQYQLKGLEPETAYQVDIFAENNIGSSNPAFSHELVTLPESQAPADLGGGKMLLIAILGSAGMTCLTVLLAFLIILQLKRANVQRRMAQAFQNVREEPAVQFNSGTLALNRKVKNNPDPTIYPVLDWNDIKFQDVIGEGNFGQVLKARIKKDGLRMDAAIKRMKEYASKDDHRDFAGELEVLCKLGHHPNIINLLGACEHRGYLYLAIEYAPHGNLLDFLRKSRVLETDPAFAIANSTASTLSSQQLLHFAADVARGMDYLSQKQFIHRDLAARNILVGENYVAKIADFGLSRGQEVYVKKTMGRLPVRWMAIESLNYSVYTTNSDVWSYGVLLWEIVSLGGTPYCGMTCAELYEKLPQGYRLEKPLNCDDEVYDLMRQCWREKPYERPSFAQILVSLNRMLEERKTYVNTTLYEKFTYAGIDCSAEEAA
UniProt Q8IYT8, sequence (whole entry, looked up): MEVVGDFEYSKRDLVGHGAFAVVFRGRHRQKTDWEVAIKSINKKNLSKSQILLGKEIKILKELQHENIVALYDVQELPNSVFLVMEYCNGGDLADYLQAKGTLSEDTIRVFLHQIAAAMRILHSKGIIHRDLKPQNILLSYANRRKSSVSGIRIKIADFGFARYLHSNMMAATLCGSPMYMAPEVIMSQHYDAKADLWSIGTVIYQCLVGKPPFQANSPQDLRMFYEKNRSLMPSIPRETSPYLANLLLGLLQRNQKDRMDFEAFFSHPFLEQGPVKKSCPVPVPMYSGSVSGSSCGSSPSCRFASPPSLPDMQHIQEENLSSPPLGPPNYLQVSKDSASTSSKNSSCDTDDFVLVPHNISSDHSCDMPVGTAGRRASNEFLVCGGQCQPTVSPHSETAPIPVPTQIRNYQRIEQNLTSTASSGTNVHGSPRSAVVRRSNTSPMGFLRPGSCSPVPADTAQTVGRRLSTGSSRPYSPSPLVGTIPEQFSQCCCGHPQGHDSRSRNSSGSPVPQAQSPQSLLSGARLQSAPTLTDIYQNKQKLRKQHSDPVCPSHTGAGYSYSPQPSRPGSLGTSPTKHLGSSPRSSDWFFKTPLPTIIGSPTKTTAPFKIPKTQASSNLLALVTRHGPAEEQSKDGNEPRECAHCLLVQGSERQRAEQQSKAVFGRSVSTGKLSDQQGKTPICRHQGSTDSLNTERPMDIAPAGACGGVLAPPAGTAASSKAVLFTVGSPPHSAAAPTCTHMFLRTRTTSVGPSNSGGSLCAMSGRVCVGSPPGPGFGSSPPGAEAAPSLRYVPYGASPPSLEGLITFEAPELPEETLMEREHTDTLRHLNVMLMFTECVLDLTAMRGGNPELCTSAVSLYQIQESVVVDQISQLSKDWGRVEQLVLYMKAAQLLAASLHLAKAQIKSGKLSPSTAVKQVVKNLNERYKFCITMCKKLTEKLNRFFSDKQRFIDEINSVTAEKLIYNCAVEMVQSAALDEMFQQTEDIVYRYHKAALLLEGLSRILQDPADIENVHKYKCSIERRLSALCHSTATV

Set 1
SMILES: N/C(=N\[N+](=O)[O-])N/N=C\c1ccc(-c2cccc([N+](=O)[O-])c2)o1
Read-out: enzyme activity
Action: inhibitor
Tested at: 0.5 µM
Relative to: control
target | remaining activity [%]
Serine/threonine-protein kinase ULK2 (ULK2, Homo sapiens, UniProt Q8IYT8) | 87.3
Ephrin type-A receptor 3 (EPHA3, Homo sapiens, UniProt P29320) | 99.3
Tyrosine-protein kinase ABL2 (ABL2, Homo sapiens, UniProt P42684) | 95.7
Tyrosine-protein kinase JAK3 (JAK3, Homo sapiens, UniProt P52333) | 103
Ribosomal protein S6 kinase alpha-2 (RPS6KA2, Homo sapiens, UniProt Q15349) | 94.5
Angiopoietin-1 receptor (TEK, Homo sapiens, UniProt Q02763) | 99.6

Set 2
Target: RING finger protein unkempt homolog, zinc fingers 1-6, GST-SBP tag (UNK, Homo sapiens, UniProt Q9C0B0, residues 30-357)
Method: RNA Bind-n-Seq
Molecule type: RNA
Sample: in vitro
Tested at: not given
Notes: RNA with constant flanks, human and mouse sites, ends assumed
Relative to: input RNA pool
Reading: higher = stronger binding
Constant ends, left off below: GGGAGUUCUACAGUCCGACGAUC … CAACAGAGGAUUGAGCAUCA
Target sequence (chain): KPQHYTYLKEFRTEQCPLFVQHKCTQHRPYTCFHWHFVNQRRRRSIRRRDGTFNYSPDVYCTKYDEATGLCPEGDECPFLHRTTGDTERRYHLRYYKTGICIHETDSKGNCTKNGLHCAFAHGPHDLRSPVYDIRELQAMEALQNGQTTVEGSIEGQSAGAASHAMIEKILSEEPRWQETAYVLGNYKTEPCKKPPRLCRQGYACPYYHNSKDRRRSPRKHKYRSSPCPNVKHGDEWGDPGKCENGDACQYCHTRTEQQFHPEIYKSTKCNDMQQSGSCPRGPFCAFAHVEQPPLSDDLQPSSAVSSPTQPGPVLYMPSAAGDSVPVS
Sequence | bound/input enrichment
UAUGUGCAUAUAUAUGCAUGUUGUCAGUUAUUGUCUCUCAGACCUAUUUAAUUGUACUUUAUUUCAGGCCCCAAUCCUUUGAUUUACUCAGGUUAUCUUCCUGACUCUGAACUACUUCUA | 0.861 ratio
CCUUAUGAACUUGGUCGGCUCUUCCAGCUACAAACUCUAGGUUUGAAAGGCAAUCCUUUAUCACAGGAUAUUCUCAACUUAUACCAGGACCCAGAUGGAACCCGAAAGCUACUGAACUUC | 0.126 ratio
GAAGAAGGGCUGAAGACAGCUGAUCCCCAUGACUGCUCUGCUUAUACUGGCUGGACAGGCAUAGCCCUUUUGUACCUGCAGUUGUACCGGGUCACAUGUGACCAAACCUACCUGCUCCGA | 0.0662 ratio
GAUCUUGGUGGGCACGAGCAAGCACGUCGCGUUUGGAAAAAUUAUCUCCCAGCAAUUAAUGGGAUUGUCUUUCUGGUGGACUGUGCAGAUCAUUCUCGCCUCGUGGAAUCCAAAGUUGAG | 0.107 ratio
GAACCAAUUAUCCCUCGAGGUGCCAGGCAAGGCCCCAGCCAACUCAAGAGAACCUGCAGCAUCUUUGCAUAUGAAGACAUCAAGGAGGUGCAUAAAAGGAGAUAUCUCCUCCAGCCUAUC | 0.227 ratio
AGACGUUGUGUUUCCUCAGCCAUUUUCCCUCUGCUGCCCCAGUUUACUCUGUCCAAAACCCUAAGGUUCUUCUCUCACUUGAACACAGACGACCUUGCUUGGGUGAUGAGACAUCCCCUU | 0.171 ratio
UGCUUGGUGCUGAUUUGUGAACCCAUUCCUCACCCAUCAAAUAUUGAAAUUCCUUUAGAUAGCAAGACUUUCCUCAGUCGACACAGCCUGGAUAUGAAAUUUUCUUAUUGUGAUGAAAGA | 1.4 ratio
UUCUAGGGCUGGUUCCCGUCAUCUUCGGGAGCCGUGGAGCGUGGGGCGCCCACAAUUUGCGCGCUCUCUUUCUGCUGCUCCCCAGCUCUCGGAUACAGCCGACACCAUGGGUUUCGGAGA | 0.0531 ratio

Set 3
Target: ABI1, truncated, D143A, DHFR fusion (Arabidopsis thaliana)
Method: DHFR PCA, deep sequencing
Sample: yeast
Notes: methotrexate growth selection, single substitutions
Together with: (+)-ABA 0.11 µM
Relative to: wild-type fitted maximum
Reading: higher = stronger binding
Parent: PYL1, truncated, DHFR fusion (Arabidopsis thaliana); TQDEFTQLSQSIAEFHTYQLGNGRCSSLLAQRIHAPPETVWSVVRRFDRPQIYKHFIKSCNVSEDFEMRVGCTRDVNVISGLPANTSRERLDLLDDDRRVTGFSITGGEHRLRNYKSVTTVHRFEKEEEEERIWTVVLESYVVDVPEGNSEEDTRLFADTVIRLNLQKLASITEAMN; partner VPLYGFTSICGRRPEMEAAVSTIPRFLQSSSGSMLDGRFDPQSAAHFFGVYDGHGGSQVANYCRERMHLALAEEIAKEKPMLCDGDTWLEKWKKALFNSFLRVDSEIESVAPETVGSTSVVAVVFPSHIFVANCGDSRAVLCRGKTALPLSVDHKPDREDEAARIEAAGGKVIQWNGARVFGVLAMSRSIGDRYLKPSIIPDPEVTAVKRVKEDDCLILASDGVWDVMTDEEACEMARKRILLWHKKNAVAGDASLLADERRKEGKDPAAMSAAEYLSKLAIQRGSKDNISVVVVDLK
Variant | relative binding score [%]
L28Q | 2.96
V143P | 20.1
H122M | 0.12
S27C | 7.82
V161Y | 17.8
R32C | 18.2
V142F | 0.205
R24Y | 5.78

Set 4
Target: CCNB3, cyclin fold, Cln2 fusion (human)
Method: yeast growth competition, sequencing
Sample: yeast
Notes: strong parent motif
Relative to: not given
Reading: higher = stronger binding
Parent: viral docking peptide; YKVKRRLVFGADD; partner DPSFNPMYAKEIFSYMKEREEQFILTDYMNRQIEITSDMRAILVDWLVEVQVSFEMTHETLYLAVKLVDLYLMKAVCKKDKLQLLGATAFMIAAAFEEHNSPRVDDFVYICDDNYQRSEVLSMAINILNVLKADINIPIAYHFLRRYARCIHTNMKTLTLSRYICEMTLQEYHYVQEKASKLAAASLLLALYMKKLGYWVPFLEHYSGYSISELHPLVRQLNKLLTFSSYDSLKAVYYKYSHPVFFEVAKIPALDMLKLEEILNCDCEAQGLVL
Variant | normalised enrichment score
YRVKRRLVFGADD [K2R] | 2.3
YKVKRRLVFGLDD [A11L] | 1.87
YKVKRRLVFGAWD [D12W] | 0.705
YKVKRRLVFGWDD [A11W] | 1.33
YKVKCRLVFGADD [R5C] | 0.527
YIVKRRLVFGADD [K2I] | 1.45
YKWKRRLVFGADD [V3W] | 0.202
YAVKRRLVFGADD [K2A] | 1.51
YKVLRRLVFGADD [K4L] | 0.409
YKVKRRLVTGADD [F9T] | 0.214
YKVKRRLTFGADD [V8T] | 1.69
YKVKRRLSFGADD [V8S] | 2.13
YKVKWRLVFGADD [R5W] | 0.289
YKVKRRLVFGATD [D12T] | 1.97
YKVKRRLVFYADD [G10Y] | 1.16
YKVKRRLVFGAND [D12N] | 1.92
YKVKRRLVAGADD [F9A] | -0.386
YTVKRRLVFGADD [K2T] | 2.46
YKVPRRLVFGADD [K4P] | 0.517
YKVKRMLVFGADD [R6M] | 0.807
YKVKRRLVFGEDD [A11E] | 2.77
YKVKRRLHFGADD [V8H] | 1.34
YKVKRKLVFGADD [R6K] | 2.46
YKVKRYLVFGADD [R6Y] | 0.199
YKVKRRLVEGADD [F9E] | 0.132

Single results of other studies
Substance | target or system | assay | system | conditions | measurement | value
CCDC22 (Homo sapiens, UniProt O60826) | VPS35L (Homo sapiens, UniProt Q7Z3J2) | cross-linking MS | cell fractions | together with: DSSO | cross-linked residues | K519 to K630
C[C@]12CC[C@H](O)CC1=CC[C@@H]1[C@@H]2CC[C@@]2(C)[C@H]1CC[C@]2(C)O | Sarcocystis neurona | parasite growth | – | 10 µM, 96 h, secondary screen | inhibition | -11.9%
LGALS8 (Homo sapiens, UniProt O00214) | SPTAN1 (Homo sapiens, UniProt Q13813) | cross-linking MS | cell fractions | together with: DMTMM | cross-linked residues | K279 to E1117
CFL1 (Homo sapiens, UniProt P23528) | THUMPD2 (Homo sapiens, UniProt Q9BTF0) | cross-linking MS | cell fractions | together with: DHSO | cross-linked residues | E28 to D119
SRFBP1 (Homo sapiens, UniProt Q8NEF9) | DDX49 (Homo sapiens, UniProt Q9Y6V7) | cross-linking MS | cell fractions | together with: DSSO | cross-linked residues | K86 to K229

For quick reference, copied from above (set 4):
Variant | normalised enrichment score
YKVKRRLVFYADD [G10Y] | 1.16
YKVKRRLVFGAND [D12N] | 1.92
YKVKRRLVAGADD [F9A] | -0.386
YTVKRRLVFGADD [K2T] | 2.46
YKVPRRLVFGADD [K4P] | 0.517
YKVKRMLVFGADD [R6M] | 0.807
